Experimental data from different studies.
Protocols differ between the studies behind these lines. Several values in a cell are separate wells, animals, samples, runs or records. Numbers after ± are the reported error.
ADORA1: Adenosine receptor A1 (ADORA1, Homo sapiens, UniProt P30542)
SIGMAR1: Sigma non-opioid intracellular receptor 1 (SIGMAR1, Cavia porcellus, UniProt Q60492)

The Ki of `C=C(C)[C@H](CC=C(C)C)Cc1c(O)cc(OC)c2c1O[C@H](c1ccc(O)cc1O)CC2=O` is reported as 12.3 µM (MAOB (Homo sapiens, UniProt P27338); enzyme activity, inhibitor).
The Ki of `CCCC[C@H](NC=O)C(=O)N[C@@H](CC(C)C)C(=O)N[C@@H](Cc1ccccc1)C(=O)O` is reported as 0.062 ± 0.008 µM (FPR1 (Homo sapiens, UniProt P21462, N192K); binding, inhibitor).
`Cc1cc(O)cc(C)c1C[C@H](N)C(=O)N[C@@H]1CCNc2ccc(Cc3cccc4ccccc34)cc21` gave a Ki of 0.017 µM (OPRK1 (Homo sapiens, UniProt P41145); ligand displacement, radioligand; cell membranes).
With `N[C@@H](CCC(=O)O)C(=O)O` the Ki was 3.58 ± 0.3 µM (anandamide membrane transporter, mouse; [3H]anandamide uptake, non-competitive inhibitor; mouse brain synaptosomes).
`CCNC(=O)[C@H]1O[C@@H](n2cnc3c(N)nc(NCCc4ccc(CCC(=O)NCCN)cc4)nc32)[C@H](O)[C@@H]1O` has a Ki of 0.168 µM (ADORA1; ligand displacement, radioligand; cell membranes).
`O=C(c1ccc(O)cc1)c1c(-c2ccc(O)cc2)sc2cc(O)ccc12` gave a Ki of 0.00147 µM (ESR2 (Homo sapiens, UniProt Q92731); ligand displacement, radioligand).
For `c1ccc(CCN2CCCCC2)cc1`, the Ki was 0.0943 ± 0.0031 µM (Tmem97 (Rattus norvegicus, UniProt Q5U3Y7); radioligand binding; rat liver membranes; added: [3H]DTG 5 nM, (+)-pentazocine 300 nM).
For `NC(=O)CCC(N)C(=O)O` (stereo in doubt), the Ki was 0.48 ± 0.05 µM (anandamide membrane transporter, mouse; [3H]anandamide uptake, non-competitive inhibitor; mouse brain synaptosomes).
`CCCCN1C(=O)C(C=CC=CC=C2C(=O)N(c3ccc(S(=O)(=O)O)cc3)N=C2C)C(=O)N(CCCC)C1=O` gave a Ki of 0.17 to 0.19 µM and 0.166 to 0.185 µM (SLC4A1 (Homo sapiens, UniProt P02730); 36Cl exchange flux, inhibitor; human erythrocytes; 0 °C, chloride-loaded form at equilibrium).
For `CCCCOC(=O)c1ccccc1C(=O)OCc1ccccc1`, the Ki was 7 ± 0.8 µM (SULT2A1 (Homo sapiens, UniProt Q06520); inhibitor; human liver cytosol; pH 7.0, added: [3H]DHEA 2.5 to 20 nM).
`CCCN(CCC1(O)CC(NS(=O)(=O)c2ccc(F)c(Cl)c2)C1)[C@H]1CCc2nc(N)sc2C1` (stereo in doubt) has a Ki of 0.0023 µM (Drd3 (Rattus norvegicus, UniProt P19020); ligand displacement, radioligand; cell membranes).
With `N[C@@H](CO)C(=O)O` the Ki was 4000 µM and 3700 µM (cysE (Escherichia coli, UniProt P0A9D4)).
`N=C(O)c1ccc[n+]([C@@H]2O[C@H](COP(=O)(O)OP(=O)([O-])OC[C@H]3O[C@@H](n4cnc5c(N)ncnc54)[C@H](O)[C@@H]3O)[C@@H](O)[C@H]2O)c1` has a Ki of 230 µM (ADH1 (Saccharomyces cerevisiae, UniProt P00330, H45R/H49Q); inhibitor; pH 7.3, 30 °C).
With `O=C(O)C1CC1` the Ki was 3100 ± 300 µM (putA, PRODH domain (Escherichia coli, UniProt P09546); competitive inhibitor; pH 7.5, room temperature, added: L-proline).
With `CN(CCOC/C=C/c1ccccc1)Cc1ccccc1` the Ki was 2.76 to 3.04 µM (OPRM1 (Homo sapiens, UniProt P35372)).
The Ki of `CC[C@H](C)CCCCC(=O)N[C@@H](CCN)C(=O)N[C@H](C(=O)N[C@@H](CCN)C(=O)N[C@H]1CCNC(=O)[C@H]([C@@H](C)O)NC(=O)[C@H](CCN)NC(=O)[C@H](CCN)NC(=O)[C@H](CC(C)C)NC(=O)[C@@H](CC(C)C)NC(=O)[C@H](CCN)NC1=O)[C@@H](C)O` is reported as 0.8 ± 0.1 µM (lipopolysaccharide; binding, displacement; Escherichia coli).
For `CN1CCN(CCc2ccc(Cl)c(Cl)c2)CC1`, the Ki was 53.7 µM (Sigma-2 receptor/TMEM97 (Cavia porcellus, UniProt H0V073); binding; guinea pig brain; low-affinity site, two-site fit, added: [3H]DTG 3 nM with (+)-pentazocine 200 nM).
With `CCCCCCCCCCCCC/C=C/[C@@H](O)[C@H](CO)N(C)C` the Ki was 2.9 µM (SIGMAR1; ligand displacement, radioligand; cell membranes).
With `c1ccc(CCN2CCCCC2)cc1` the Ki was over 10 µM (Drd2 (Rattus norvegicus, UniProt P61169); ligand displacement, radioligand).
The Ki of `O=C(O)c1cc(NC(=O)c2ccccc2)cc([C@H]2CCN[C@@H]2C(=O)O)c1` (racemic) is reported as 18.5 µM (Glutamate receptor ionotropic, kainate 1 (Rattus norvegicus, UniProt P22756); ligand displacement, radioligand; cell membranes).
With `C[C@@H]1O[C@@H](O[C@H]2C[C@@H](O)[C@]3(CO)[C@H]4[C@H](O)C[C@]5(C)[C@@H](C6=CC(=O)OC6)CC[C@]5(O)[C@@H]4CC[C@]3(O)C2)[C@H](O)[C@H](O)[C@H]1O` the Ki was 1.26 ± 0.04 µM (ATP1A1 (Sus scrofa, UniProt P05024); enzyme activity; purified pig kidney enzyme; 10 min preincubation, 37 °C, no DMSO).
`COc1cc(O)c2c(O)c3c(=O)cc(C)oc3cc2c1` gave a Ki of 5.96 µM (MAOA (Homo sapiens, UniProt P21397); inhibitor; uncompetitive, ES complex).
`N=C(N)NC(=O)c1ccc(C(=O)NCCCC[C@H](NC(=O)[C@H](Cc2c[nH]c3ccccc23)NC(=O)[C@H](CCCCN)NC(=O)CNC(=O)CCC(=O)N/N=C/c2ccc(/C=N/NC(=O)CCC(=O)NCC(=O)N[C@@H](CCCCN)C(=O)N[C@@H](Cc3c[nH]c4ccccc34)C(=O)N[C@@H](CCCCNC(=O)c3ccc(C(=O)NC(=N)N)[nH]3)C(N)=O)cc2)C(N)=O)[nH]1` gave a Ki of 0.078 ± 0.0031 µM (Tryptase beta-2 (TPSB2, Homo sapiens, UniProt P20231); non-competitive inhibitor).
With `O=C(/C=C/c1ccoc1)N[C@@H]1CC[C@@]2(O)[C@H]3Cc4cccc5c4[C@@]2(CCN3CC2CC2)[C@H]1O5` the Ki was 0.0251 µM (Oprm1 (Mus musculus, UniProt P42866); ligand displacement, radioligand).
`CCCCCCCCCCCCC/C=C/[C@H](O)[C@@H](N)CO` gave a Ki of 0.02 µM (SIGMAR1; ligand displacement, radioligand).
For `COP(=O)(O)C(C)=O`, the Ki was 167 µM (dxs (Escherichia coli, UniProt P77488, H49N); enzyme activity, inhibitor; added: D-GAP 500 µM, pyruvate 2 mM).
`Cc1cn([C@H]2C[C@H](O)[C@@H](COP(=O)(O)NP(=O)(O)OP(=O)(O)O)O2)c(=O)[nH]c1=O` has a Ki of 0.145 µM (SAMHD1 (Homo sapiens, UniProt Q9Y3Z3); enzyme activity, inhibitor).
The Ki of `O=C(/C=C/c1ccoc1)N[C@H]1CC[C@@]2(O)[C@H]3Cc4ccc(O)c5c4[C@@]2(CCN3CC2CC2)[C@H]1O5` is reported as 0.02 ± 0.0033 µM (Oprd1 (Mus musculus, UniProt P32300); binding, radioligand displacement; added: [3H]diprenorphine).
For `CC[C@H]1O[C@]2(C)[C@H](OC(C)=O)[C@@]1(C)O[C@@H](/C=C/C=C/C=C/c1oc(=O)cc(OC)c1C)[C@@H]2O`, the Ki was 1.1 ± 0.4 µM (atpD, in F1Fo complex (Escherichia coli, UniProt P0ABB4); ATP hydrolysis; Escherichia coli everted membranes; free enzyme).
`Nc1nc(Cl)nc2c1ncn2[C@H]1C[C@H](O)[C@@H](CO)O1` gave a Ki of 1.57 µM (ADORA1; ligand displacement, radioligand; cell membranes).
For `CN(C(N)=Nc1cccc2ccccc12)c1cccc(I)c1`, the Ki was 0.00165 ± 0.00016 µM (NMDA receptor PCP site, rat; radioligand binding; rat brain homogenate; 2 h, 23 °C, added: [3H](+)-MK-801 0.50 nM, L-glutamate 100 µM, glycine 30 µM).
With `C[C@H]1CN(C[C@H]2Cc3ccccc3CN2)CC[C@@]1(C)c1cccc(O)c1` the Ki was 0.0377 µM (Nociceptin receptor (OPRL1, Homo sapiens, UniProt P41146); ligand displacement, radioligand).
With `O=C(NCCCc1c[nH]cn1)NC(=O)c1ccccc1` the Ki was 5.25 µM (HRH4 (Homo sapiens, UniProt Q9H3N8); ligand displacement, radioligand; cell membranes).
For `OC[C@H]1O[C@@H](n2cnc3c2N=CNC[C@H]3O)C[C@@H]1O`, the Ki was 0.037 ± 0.001 µM (MTA/SAH deaminase (Pseudomonas aeruginosa, UniProt Q9HZ64); inhibitor; pH 7.4, 25 °C, added: MTA 100 µM).
